Measurements collected from several papers.
Each line is one published result; not all experiments were run side by side.
Organism: Staphylococcus aureus

SMILES	assay	system	conditions	MIC
CN(C)c1ccc2nc3ccc(=[N+](C)C)cc-3sc2c1		ATCC 43300, resistant	18 h, 37 °C, LED light 10 min, 1.57 mW	64 µM
O=C(Nc1nnc(Cl)s1)c1ccco1				> 128 µg/mL
CC1(C)S[C@@H]2[C@H](NC(=O)[C@H](N)c3ccccc3)C(=O)N2[C@H]1C(=O)O	broth microdilution	MRSA, cation-adjusted Mueller-Hinton broth	16 h, 37 °C	128 µg/mL
CC[C@H]1OC(=O)[C@H](C)[C@@H](O[C@H]2C[C@@](C)(OC)[C@@H](O)[C@H](C)O2)[C@H](C)[C@@H](O[C@@H]2O[C@H](C)C[C@H](N(C)C)[C@H]2O)[C@](C)(O)C[C@@H](C)C(=O)[C@H](C)[C@@H](O)[C@]1(C)O		MRSA 1		100 µM
O=C(CCCN1CCC(O)(c2ccc(Br)cc2)CC1)c1ccc(F)cc1				> 128 µg/mL
CN(C)c1ccc(O)c2c1C[C@H]1C[C@H]3[C@H](N(C)C)C(O)=C(C(N)=O)C(=O)[C@@]3(O)C(O)=C1C2=O	broth microdilution CLSI	ATCC 29213		0.063 µg/mL
CN[C@H](CC(C)C)C(=O)N[C@H]1C(=O)N[C@@H](CC(N)=O)C(=O)N[C@H]2C(=O)N[C@H]3C(=O)N[C@H](C(=O)N[C@H](C(=O)O)c4cc(O)cc(O)c4-c4cc3ccc4O)[C@H](O)c3ccc(c(Cl)c3)Oc3cc2cc(c3O[C@@H]2O[C@H](CO)[C@@H](O)[C@H](O)[C@H]2O[C@H]2C[C@](C)(N)[C@H](O)[C@H](C)O2)Oc2ccc(cc2Cl)[C@H]1O		clinical isolate S.A02, RPMI with FBS	24 h, 37 °C	2.5 µM
CC[C@H](C)[C@H](NC(=O)[C@H](CCCCN)NC(=O)[C@H](CCC(=O)O)NC(=O)[C@H](CCCCN)NC(=O)[C@H](CO)NC(=O)[C@H](CCCCN)NC(=O)[C@H](CCCNC(=N)N)NC(=O)[C@H](Cc1ccccc1)NC(=O)[C@H](Cc1ccccc1)NC(=O)[C@H](CC(=O)O)NC(=O)CNC(=O)[C@H](CC(C)C)NC(=O)[C@@H](N)CC(C)C)C(=O)NCC(=O)N[C@@H](CCCCN)C(=O)N[C@@H](CCC(=O)O)C(=O)N[C@@H](Cc1ccccc1)C(=O)N[C@@H](CCCCN)C(=O)N[C@@H](CCCNC(=N)N)C(=O)N[C@H](C(=O)N[C@H](C(=O)N[C@@H](CCC(N)=O)C(=O)N[C@@H](CCCNC(=N)N)C(=O)N[C@H](C(=O)N[C@@H](CCCCN)C(=O)N[C@@H](CC(=O)O)C(=O)N[C@@H](Cc1ccccc1)C(=O)N[C@@H](CC(C)C)C(=O)N[C@@H](CCCNC(=N)N)C(=O)N[C@@H](CC(N)=O)C(=O)N[C@@H](CC(C)C)C(=O)N[C@H](C(=O)N1CCC[C@H]1C(=O)N[C@@H](CCCNC(=N)N)C(=O)N[C@H](C(=O)N[C@@H](CCC(=O)O)C(=O)N[C@@H](CO)C(=O)O)[C@@H](C)O)C(C)C)[C@@H](C)CC)C(C)C)[C@@H](C)CC		CMCC 26003	highest concentration 50 µM	16.7 µM
[Cl][Fe]([Cl])[Cl]			24 h, 37 °C	> 1600 µM
CC[C@H]1OC(=O)[C@H](C)[C@@H](O[C@H]2C[C@@](C)(OC)[C@@H](O)[C@H](C)O2)[C@H](C)[C@@H](O[C@@H]2O[C@H](C)C[C@H](N(C)C)[C@H]2O)[C@](C)(O)C[C@@H](C)C(=O)[C@H](C)[C@@H](O)[C@]1(C)O		147 MRSA clinical isolate		37.5 µM
CN(C)[C@@H]1C(O)=C(C(N)=O)C(=O)[C@@]2(O)C(O)=C3C(=O)c4c(O)cccc4[C@@](C)(O)[C@H]3C[C@@H]12		MRSA 1		≤ 0.1 µM
Cc1c2c(nn1C)CSCc1cc(n(C)n1)CSc1cc(c3ccccc3c1)OCCCc1c(C(=O)O)n(C)c3c-2c(Cl)ccc13	broth microdilution	MSSA SA113		6.25 µM
CC[C@H](C)CCCCC(=O)N[C@@H](CCN)C(=O)N[C@H](C(=O)N[C@@H](CCN)C(=O)N[C@H]1CCNC(=O)[C@H]([C@@H](C)O)NC(=O)[C@H](CCN)NC(=O)[C@H](CCN)NC(=O)[C@H](CC(C)C)NC(=O)[C@@H](CC(C)C)NC(=O)[C@H](CCN)NC1=O)[C@@H](C)O	broth microdilution	MSSA ATCC 29213, cation-adjusted Mueller-Hinton broth	20 to 24 h, 37 °C, 0.002% polysorbate 80	> 128 µg/mL
CC1(C)S[C@@H]2[C@H](NC(=O)[C@H](N)c3ccccc3)C(=O)N2[C@H]1C(=O)O		ATCC 43300, resistant	18 h, 37 °C, LED light 10 min, 1.57 mW	32 µM
CNC(C)C1CCC(N)C(OC2C(N)CC(N)C(OC3OCC(C)(O)C(NC)C3O)C2O)O1 (stereo not drawn)		clinical isolate S.A11, RPMI with FBS	24 h, 37 °C	2.5 µM
C/C=C(\C)c1cc(O)c(C)c(OC(=O)c2c(C)c(Cl)c(O)c(Cl)c2O)c1	broth microdilution	718306		16 µg/mL
CCC[C@@H]1C[C@@H](C(=O)N[C@@H]([C@H]2O[C@H](SC)[C@H](O)[C@@H](O)[C@H]2O)[C@@H](C)O)N(C)C1	broth microdilution	BNCC 186335		4 µg/mL
CN[C@H](CC(C)C)C(=O)N[C@H]1C(=O)N[C@@H](CC(N)=O)C(=O)N[C@H]2C(=O)N[C@H]3C(=O)N[C@H](C(=O)N[C@H](C(=O)O)c4cc(O)cc(O)c4-c4cc3ccc4O)[C@H](O)c3ccc(c(Cl)c3)Oc3cc2cc(c3O[C@@H]2O[C@H](CO)[C@@H](O)[C@H](O)[C@H]2O[C@H]2C[C@](C)(N)[C@H](O)[C@H](C)O2)Oc2ccc(cc2Cl)[C@H]1O	broth microdilution	MRSA ATCC 33591, TGN medium		8 µg/mL
NC[C@H]1O[C@H](O[C@H]2[C@H](O)[C@@H](O[C@H]3O[C@H](CO)[C@@H](O)[C@H](N)[C@H]3O)[C@H](N)C[C@@H]2N)[C@H](N)C[C@@H]1O		138		12.5 µM
CC[C@@H](C)[C@H]1O[C@@H](c2c(O)c(-c3ccccc3)cn(O)c2=O)[C@H](C)C[C@@H]1C		ATCC 29213		> 20 µg/mL

SMILES	assay	system	conditions	MIC
Oc1c(Br)cc(Br)c2nc3c(F)cccc3nc12	broth microdilution	25923		0.3 µM
CN(C)[C@@H]1C(O)=C(C(N)=O)C(=O)[C@@]2(O)C(O)=C3C(=O)c4c(O)c(N)nc(Cl)c4C[C@H]3C[C@@H]12	broth microdilution CLSI	ATCC 29213		0.063 µg/mL
CNC(=O)c1cc(Oc2ccc(NC(=O)Nc3ccc(Cl)c(C(F)(F)F)c3)cc2)ccn1		clinical isolate		3 to 10 µM
COc1ccc(-c2csc(NC(=O)c3ccc(C(=O)Nc4nc(-c5ccc(OC)c(OC)c5)cs4)s3)n2)cc1OC				> 32 µg/mL
CC1(C)S[C@@H]2[C@H](NC(=O)[C@H](N)c3ccc(O)cc3)C(=O)N2[C@H]1C(=O)O	broth microdilution	BNCC 186335		0.5 µg/mL
CCn1cc(C(=O)O)c(=O)c2cc(F)c(N3CCNCC3)cc21	broth microdilution	ATCC 33591	18 h	1 µg/mL
C[C@@H](O)[C@H]1C(=O)N2C(C(=O)O)=C(S[C@@H]3CN[C@H](C(=O)N(C)C)C3)[C@H](C)[C@H]12	broth microdilution	ATCC 43300 MRSA		0.5 µg/mL
CN[C@H](CC(C)C)C(=O)N[C@H]1C(=O)N[C@@H](CC(N)=O)C(=O)N[C@H]2C(=O)N[C@H]3C(=O)N[C@H](C(=O)N[C@H](C(=O)O)c4cc(O)cc(O)c4-c4cc3ccc4O)[C@H](O)c3ccc(c(Cl)c3)Oc3cc2cc(c3O[C@@H]2O[C@H](CO)[C@@H](O)[C@H](O)[C@H]2O[C@H]2C[C@](C)(N)[C@H](O)[C@H](C)O2)Oc2ccc(cc2Cl)[C@H]1O		ATCC 29213	16 h	1 µg/mL
CCn1cc(C(=O)O)c(=O)c2cc(F)c(N3CCNCC3)cc21	broth microdilution	MRSA NCTC 12493		2 µM
CN(C)[C@@H]1C(O)=C(C(N)=O)C(=O)[C@@]2(O)C(O)=C3C(=O)c4c(O)cccc4[C@@](C)(O)[C@H]3C[C@@H]12		147 MRSA clinical isolate		0.1 µM
CC(=O)Oc1cc2c(s1)CCN(C(C(=O)C1CC1)c1ccccc1F)C2 (stereo not drawn)		USA300 CA-MRSA	20 h	> 128 µg/mL
CN[C@H](CC(C)C)C(=O)N[C@H]1C(=O)N[C@@H](CC(N)=O)C(=O)N[C@H]2C(=O)N[C@H]3C(=O)N[C@H](C(=O)N[C@H](C(=O)O)c4cc(O)cc(O)c4-c4cc3ccc4O)[C@H](O)c3ccc(c(Cl)c3)Oc3cc2cc(c3O[C@@H]2O[C@H](CO)[C@@H](O)[C@H](O)[C@H]2O[C@H]2C[C@](C)(N)[C@H](O)[C@H](C)O2)Oc2ccc(cc2Cl)[C@H]1O		ATCC 29213	1 strain	1 µg/mL
O=[N+]([O-])c1ccc2[nH]c(CNCC34CC5CC(CC(C5)C3)C4)nc2c1		ATCC 29213		> 128 µg/mL
COc1cccc(OC)c1C(=O)N[C@@H]1C(=O)N2[C@@H]1SC(C)(C)[C@@H]2C(=O)O		MRSA 2		> 100 µM
CO/N=C(\C(=O)N[C@@H]1C(=O)N2C(C(=O)O)=C(COC(C)=O)CS[C@H]12)c1csc(N)n1	broth microdilution	ATCC 33591	18 h	256 µg/mL
COc1ccc2nc(NC(=O)c3cc(=O)c4ccccc4o3)sc2c1				> 128 µg/mL
CC1(C)S[C@@H]2[C@H](NC(=O)[C@H](N)c3ccc(O)cc3)C(=O)N2[C@H]1C(=O)O	broth microdilution	MRSA		16 µg/mL
C=CC1(C)CC(OC(=O)CSc2ccc(N)cc2)C2(C)C(C)CCC3(CCC(=O)C32)C(C)C1O (stereo not drawn)				≤ 0.06 µg/mL
CN[C@H](CC(C)C)C(=O)N[C@H]1C(=O)N[C@@H](CC(N)=O)C(=O)N[C@H]2C(=O)N[C@H]3C(=O)N[C@H](C(=O)N[C@H](C(=O)O)c4cc(O)cc(O)c4-c4cc3ccc4O)[C@H](O)c3ccc(c(Cl)c3)Oc3cc2cc(c3O[C@@H]2O[C@H](CO)[C@@H](O)[C@H](O)[C@H]2O[C@H]2C[C@](C)(N)[C@H](O)[C@H](C)O2)Oc2ccc(cc2Cl)[C@H]1O	broth microdilution	ATCC 29213, LB medium	no added Zn2+	1 µg/mL

A few entries again:
SMILES	assay	system	conditions	MIC
CCn1cc(C(=O)O)c(=O)c2cc(F)c(N3CCNCC3)cc21	broth microdilution	MRSA NCTC 12493		2 µM
CN(C)[C@@H]1C(O)=C(C(N)=O)C(=O)[C@@]2(O)C(O)=C3C(=O)c4c(O)cccc4[C@@](C)(O)[C@H]3C[C@@H]12		147 MRSA clinical isolate		0.1 µM
CC(=O)Oc1cc2c(s1)CCN(C(C(=O)C1CC1)c1ccccc1F)C2 (stereo not drawn)		USA300 CA-MRSA	20 h	> 128 µg/mL
CN[C@H](CC(C)C)C(=O)N[C@H]1C(=O)N[C@@H](CC(N)=O)C(=O)N[C@H]2C(=O)N[C@H]3C(=O)N[C@H](C(=O)N[C@H](C(=O)O)c4cc(O)cc(O)c4-c4cc3ccc4O)[C@H](O)c3ccc(c(Cl)c3)Oc3cc2cc(c3O[C@@H]2O[C@H](CO)[C@@H](O)[C@H](O)[C@H]2O[C@H]2C[C@](C)(N)[C@H](O)[C@H](C)O2)Oc2ccc(cc2Cl)[C@H]1O		ATCC 29213	1 strain	1 µg/mL
